Published values of several laboratories.
Target: LIM domain kinase 2 (LIMK2, Homo sapiens, UniProt P53671)

COc1cc(Nc2nccc(-c3cnn4nc(OC)ccc34)n2)cc(C(F)(F)F)c1  remaining binding (binding, competition with immobilised ligand; 1 µM): 94%
CCN1CCN(Cc2ccc(C(=O)Nc3ccc(C)c(NCc4cnc5[nH]ccc5c4OC)c3)cc2C(F)(F)F)CC1  remaining binding (binding, competition with immobilised ligand; 1 µM): 58%
Cc1ccc(-c2c(/C=C(\C#N)C(=O)NC(C)C)n(CCCO)c3ncnc(N)c23)cc1  remaining binding (cell-free assay, competition with immobilised ligand; 1 µM): 100%
CNC(=O)C[C@H](Cc1ccc(C#N)cc1)NC(=O)c1cc(-c2ccc(CN[C@H](C)c3ccc(C)cc3)o2)ccc1Cl  activity vs control (enzyme activity, inhibitor; 1 µM): 92%
Nc1ncc(-c2cc(-c3cnn(CC(F)(F)F)c3)ncc2F)nc1C(=O)NC1CNCC(F)C1 (centres unmarked)  remaining activity (enzyme activity; 1 µM; reference: DMSO control): 99.4%
C=CC(=O)N1Cc2nc(-c3cc(-c4cc(Cl)cnc4Cl)c(F)cc3F)n(-c3ccncn3)c2C1  inhibition (cell-free assay, inhibitor; 1 µM): 0.4%
C=CC(=O)N1CCCC(n2c(=O)c3ncccc3n(Cc3ccc(Oc4ccccc4)cc3)c2=O)C1 (centres unmarked)  remaining binding (cell-free assay, competition with immobilised ligand; 1 µM): 83%
Cc1cnc2nc1Nc1cccc(c1)COC/C=C/COCc1cc(ccc1OCCN1CCOCC1)N2  remaining binding (binding; 0.1 µM): 90%
CN1CC[C@@H](COc2cnc(C#N)cc2-c2ccn3nc(NC(=O)C4CC4)cc3c2)C1  inhibition (enzyme activity, inhibitor; 1 µM): 18%
CN1CCN(Cc2ccc(-c3ccc(CO[C@H]4CCC[C@@H]4NC(=O)c4cc(-c5cnn(C)c5)cnc4N)cc3)cc2)CC1  inhibition (enzyme activity, inhibitor; 0.1 µM): -8%
CC(C)=CC1OC(C)(C)C2C=C3C(=O)C(Cl)=CC(O)C3C3C(O)C4OC4C(=O)C132 (centres unmarked)  remaining binding (cell-free assay, competition with immobilised ligand; 10 µM): 82%
C=CC(=O)N1CCc2ccc(-n3c(=O)ccc4cnc5ccc(-c6cnn(C)c6)cc5c43)cc21  remaining binding (KINOMEscan; 1 µM; reference: DMSO control): 100%
COc1cc(Nc2nc(C)cc(-c3cnn4nc(OC)ccc34)n2)cc(C(F)(F)F)c1  remaining activity (inhibitor; 1 µM; reference: control): 92%
C[C@H]1CN(C(=O)c2cn(-c3ccnc(N)n3)c3cc(C#CC4(O)CCCCC4)ccc23)CCN1  inhibition (cell-free assay, TR-FRET; 1 µM): -1%
CNC1C[S+]2CC[S+]3CC[S+](C1)[Ru-4]321([N]=C=S)[n]2c3ccc(OC)cc3c3c4c(c5cc(F)c[n+]1c5c32)C(=O)NC4=O (centres unmarked)  remaining binding (KinomeScan; 0.1 µM; reference: untreated): 92%
O=C(Cc1ccc(OCc2ccccc2)cc1)NC1(C(=O)O)CCN(C(=O)c2ccc(-c3cccc(Cl)c3)cc2)CC1  activity vs control (enzyme activity, inhibitor; 10 µM): 58%
COc1c(Cl)cccc1Nc1c(-c2ccncc2C#C[C@@]2(C)CCCN2C(=O)/C=C/CN(C)C)[nH]c2c1C(=O)NCC2  remaining binding (binding, competition with immobilised ligand; 3 µM): 98%
Nc1ncc2c(n1)-c1c([nH]c3ccc(C4=CCOCC4)cc13)CCC2  remaining binding (binding, competition with immobilised ligand; 1 µM): 83%
CNC(=O)C1CCN(c2cc(C)c(F)cc2NC(=O)c2ccc(-c3cc(O)ccc3C)c(C)c2)CC1  remaining binding (binding, competition with immobilised ligand; 1 µM): 100%
CCn1cc(C(=O)O)c(=O)c2c(N)c(F)c(NC3CCCCC3)cc21  inhibition (kinase activity; 0.1 µM, with: ATP at Km): -2.3%

Some of these lines once more:
C=CC(=O)N1CCc2ccc(-n3c(=O)ccc4cnc5ccc(-c6cnn(C)c6)cc5c43)cc21  remaining binding (KINOMEscan; 1 µM; reference: DMSO control): 100%
